Published values pooled from the literature.
Parts stem from different laboratories: compare values within a part only. Changes are numbered by the printed parent chain.

Study 1 — method: protein binding microarray; molecule type: double-stranded DNA, one strand shown; medium: in vitro; concentration: not given; reference: not given; reading: higher = stronger binding; quantity: E-score
Target: Histone acetyltransferase KAT6A, both winged helices, GST fusion (KAT6A, Homo sapiens, UniProt Q92794, residues 1-181)
Notes: 8-mer, flanks averaged, mean of 2 arrays, mostly near background
Construct (chain): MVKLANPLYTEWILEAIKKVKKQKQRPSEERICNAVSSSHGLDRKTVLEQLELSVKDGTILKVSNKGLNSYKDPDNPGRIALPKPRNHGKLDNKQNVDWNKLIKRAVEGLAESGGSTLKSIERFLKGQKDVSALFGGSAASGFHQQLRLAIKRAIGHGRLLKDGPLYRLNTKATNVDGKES
TCCTACAA: -0.143
GCCACCCA: -0.211
CGCGAGCG: 0.363
GCCCCGCA: 0.128
AGTCACAC: -0.13
CGTAGGTA: 0.0161
CAACAAGC: -0.102
GCGCTTAC: 0.35
GCTGTATA: -0.0842
AAGACTTC: -0.151
AGTGGCGC: 0.242
CACGTAGG: -0.203
CGCCACAG: 0.0134
AGTCCCTA: -0.0768
CATATTCG: 0.00651
AAATTGCT: -0.0896
GGTGCACA: -0.0554
GTACTGAC: 0.0816
GTATTGAA: -0.00262

Study 2 — method: DHFR PCA, deep sequencing; medium: yeast; added: (+)-ABA 710 µM; reference: wild-type fitted maximum; reading: higher = stronger binding; quantity: relative binding score
Target: ABI1, truncated, D143A, DHFR fusion (Arabidopsis thaliana)
Notes: methotrexate growth selection, single substitutions
Starting sequence: PYL1, truncated, DHFR fusion (Arabidopsis thaliana); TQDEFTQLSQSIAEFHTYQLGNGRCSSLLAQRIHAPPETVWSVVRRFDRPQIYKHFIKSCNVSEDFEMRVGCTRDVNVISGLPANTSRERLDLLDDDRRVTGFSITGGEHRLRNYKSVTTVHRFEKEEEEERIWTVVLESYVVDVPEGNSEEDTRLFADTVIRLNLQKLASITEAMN
N22I: 103%
Y53S: 68.6%
L8Q: 95%
P37Y: 77%
V40T: 70.5%
A35P: -4.74%
T119R: 38.9%
C25S: 92%
F5I: 102%

Study 3 — method: universal PBM; molecule type: double-stranded DNA, one strand shown; medium: in vitro; concentration: 600 nM; reading: higher = stronger binding; quantity: E-score
Target: Sal-like protein 4, full length isoform A (SALL4, Homo sapiens, UniProt Q9UJQ4, residues 1-1053)
Chain of UniProt Q9UJQ4 (whole entry, looked up): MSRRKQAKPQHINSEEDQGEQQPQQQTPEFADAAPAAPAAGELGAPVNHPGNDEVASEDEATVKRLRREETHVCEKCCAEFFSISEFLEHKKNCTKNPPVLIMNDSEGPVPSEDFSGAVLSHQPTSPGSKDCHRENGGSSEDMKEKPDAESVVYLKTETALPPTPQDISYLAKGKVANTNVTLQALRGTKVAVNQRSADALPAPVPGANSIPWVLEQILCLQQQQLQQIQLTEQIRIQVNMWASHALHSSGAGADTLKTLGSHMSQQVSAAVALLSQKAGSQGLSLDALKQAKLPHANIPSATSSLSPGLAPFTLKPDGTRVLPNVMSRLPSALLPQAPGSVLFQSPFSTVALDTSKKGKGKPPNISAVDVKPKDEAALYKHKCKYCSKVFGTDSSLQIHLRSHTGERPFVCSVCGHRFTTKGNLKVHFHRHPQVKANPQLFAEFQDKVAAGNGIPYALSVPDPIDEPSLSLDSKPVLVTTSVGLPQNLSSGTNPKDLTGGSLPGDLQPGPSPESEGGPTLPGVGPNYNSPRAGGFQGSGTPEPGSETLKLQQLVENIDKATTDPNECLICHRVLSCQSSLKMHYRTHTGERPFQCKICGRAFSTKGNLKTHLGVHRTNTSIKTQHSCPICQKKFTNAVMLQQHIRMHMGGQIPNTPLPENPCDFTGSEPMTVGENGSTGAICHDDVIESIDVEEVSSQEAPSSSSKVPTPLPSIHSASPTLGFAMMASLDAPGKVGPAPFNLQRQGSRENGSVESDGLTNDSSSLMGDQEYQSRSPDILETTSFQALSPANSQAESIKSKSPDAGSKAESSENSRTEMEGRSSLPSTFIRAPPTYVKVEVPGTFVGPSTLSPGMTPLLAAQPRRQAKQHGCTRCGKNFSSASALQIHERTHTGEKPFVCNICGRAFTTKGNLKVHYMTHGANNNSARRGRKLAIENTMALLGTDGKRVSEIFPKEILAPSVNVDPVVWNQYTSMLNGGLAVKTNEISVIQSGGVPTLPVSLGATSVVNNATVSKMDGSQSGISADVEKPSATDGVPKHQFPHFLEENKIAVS
Notes: 8-mer, flanks averaged, mean of replicates
ACTTCGAT: 0.102
GATCTTGC: 0.0303
AACGCTCG: -0.113
GCAGACAC: -0.0677
CACTTTTA: 0.19
GCCCTGCC: -0.318
CACTAAGC: -0.144
AACCTCGC: -0.139
CGCACAAA: -0.014
CATCAGGG: -0.0982
CTACGAAC: 0.035
CTTCGTCC: -0.219
CTAAATGC: 0.0312
CCTGACGC: -0.341
ACAACTCC: -0.0778
GTGGTCGA: -0.2
TCAATCAA: 0.262
AACCCCGG: -0.375
GTCAACAC: 0.0313
ATTTTAAG: 0.282
CAAATGCA: 0.143
TGGACACA: -0.0123

Study 4 — method: RNAcompete; molecule type: RNA; medium: in vitro; concentration: 20 nM; notes: 7-mer, probes averaged, single round; reference: mean of 7-mers; reading: higher = stronger binding; quantity: 7-mer Z-score
Target: PABPC1L2, full length, GST fusion (mouse, UniProt A0ABA7IW68)
Construct (chain): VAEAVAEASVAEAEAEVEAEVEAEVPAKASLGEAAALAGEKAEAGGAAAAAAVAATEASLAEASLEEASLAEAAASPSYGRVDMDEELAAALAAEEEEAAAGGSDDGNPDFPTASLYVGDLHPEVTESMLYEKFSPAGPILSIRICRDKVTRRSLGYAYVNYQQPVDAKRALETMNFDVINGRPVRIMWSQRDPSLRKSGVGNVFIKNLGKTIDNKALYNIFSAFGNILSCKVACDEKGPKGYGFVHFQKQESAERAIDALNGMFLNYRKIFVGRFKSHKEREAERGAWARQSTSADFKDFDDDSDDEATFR
CUAACUU: -0.331
CCAUCUG: -0.414
AAAAAUA: 15
GGACCUA: -0.0591
CAGACGU: -0.0826
GCUCGAG: -0.336
GUUUCAC: -0.425
GAGUAUC: -0.211
AGAUGAA: -0.0554
GAAUGCG: -0.0772
UCCGCGC: -0.36
GUUGCUU: -0.26
ACAAAUU: 1.22
AGAGGGU: 0.0225
GCCGAGG: -0.0609
ACAGACG: 0.122
GCGGACC: -0.00289
GAAGAAC: 0.269
CAAUUGU: -0.295
CCAUGGC: -0.266

Study 5 — method: protein-binding microarray; molecule type: double-stranded DNA, one strand shown; medium: in vitro; concentration: 2540 nM top; notes: 60-bp whole probe; added: salmon DNA 0.4 mg/ml; reference: random background probes; reading: higher = stronger binding; quantity: fitted relative affinity; all sequences stand within: GCCTAGCAC … GTCTTGATTCGCTTGACGCTGCTG
Target: Interferon regulatory factor 3, full length, phosphomimetic (IRF3, Homo sapiens, UniProt Q14653, residues 1-427, S386D/S396D/S398D/S402D/T404D/S405D)
Construct (chain): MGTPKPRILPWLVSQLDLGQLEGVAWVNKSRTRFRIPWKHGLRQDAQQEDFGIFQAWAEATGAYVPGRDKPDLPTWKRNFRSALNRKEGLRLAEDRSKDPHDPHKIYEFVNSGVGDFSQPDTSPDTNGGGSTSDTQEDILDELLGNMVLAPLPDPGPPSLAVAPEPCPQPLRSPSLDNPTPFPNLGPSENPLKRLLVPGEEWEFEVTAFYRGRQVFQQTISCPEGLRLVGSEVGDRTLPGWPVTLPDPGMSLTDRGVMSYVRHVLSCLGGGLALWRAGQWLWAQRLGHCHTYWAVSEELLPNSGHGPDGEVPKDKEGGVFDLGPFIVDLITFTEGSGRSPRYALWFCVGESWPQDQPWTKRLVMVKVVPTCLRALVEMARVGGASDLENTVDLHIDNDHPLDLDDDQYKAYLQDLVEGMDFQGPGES
TTAGATTACAGTTTCGATTAGTGCTAG: 3.58 z-score
CACGGTATCGGACTGGGGACGTGCTAG: 1.23 z-score
TTAGGTTGCGACACTGGGTTAGTGCTA: 0.357 z-score
CTAGAACTGAGTTTCGATTAGTGCTAG: 2.58 z-score
TTGCCTTTTGCTTTACTGATGTGCTAG: 4.6 z-score
TTAGATTTCAGTTTCGACTAGTGCTAG: 4.49 z-score
TCACCTCTCTTTCCAACACTGTGCTAG: 1.35 z-score
TCATTTTCCTAATTGAAACTGTGCTAG: 6.19 z-score
AGTCTCTTCTGGGACTCATGGTGCTAG: 0.363 z-score
TTAGATTACGGGACTGGATTAGTGCTA: -0.415 z-score
TTAGGTTCCGGTTTCGGTCAGTGCTAG: 7.12 z-score
TCAGGTTGAACATGAACACTGTGCTAG: -0.244 z-score
GACGATATCAGTCTCGGGACGTGCTAG: 1.05 z-score
TCATATCACTATTCTAGGACTGTGCTA: 1.62 z-score

Study 6 — method: RNA Bind-n-Seq; molecule type: RNA; medium: in vitro; concentration: 365 nM; reference: no-protein control; reading: higher = stronger binding; quantity: RBNS enrichment (R)
Target: RNA binding protein fox-1 homolog 2, RRM domain, GST-SBP tag (RBFOX2, Homo sapiens, UniProt O43251-10, residues 100-194)
Notes: natural RNA segment, single round, ends assumed
Target sequence (chain): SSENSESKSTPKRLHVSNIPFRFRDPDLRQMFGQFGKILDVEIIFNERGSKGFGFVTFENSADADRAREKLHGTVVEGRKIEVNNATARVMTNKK
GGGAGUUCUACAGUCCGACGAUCAUAGUCAAAACAAAUCGGUGCCACCCGGCCGUGACAAAUCCUAGUAGAUUCUGUGCAUGUGGAGCGGCCGCGAAGAGGUGACACCGUUUGGGGCUGUGUCCUUAUUUUAUUGGAAUUCUCGGGUGCCAA: 12.1
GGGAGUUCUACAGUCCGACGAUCCCGCCGCCCCACCAGUUAAACGGAUGACCAAAGACCUUUCUUAUGCCGGAAGCAAAAACCAAAACUUUUUGUUGGCUUUUUCCUUUGUCGCCUCCCCAGCACCUGCCCUCUGGAAUUCUCGGGUGCCAA: 0.434
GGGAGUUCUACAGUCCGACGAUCGCUUGGGGCCCCAGCCUUAACUUCUCGACAGUUCCGUGAGGAUGACUUCCGGAGAGUUGUGGACUUUAUAGAUGAAGGGGUCAACAUUGGCUUAGAGGUGAAGAGCAAGAUGGAAUUCUCGGGUGCCAA: 0.413
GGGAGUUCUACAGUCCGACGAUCCCGUGAUGCUGUUUUGUAACACAAACUGAUCUCCUUUAGUUCAGUUUGUCUCCUGUAAAUAGCGGCUCCUAUGCCAUCCUCCCUGCUUUAUUAGUUAAUUUAAAUGAACAUGGAAUUCUCGGGUGCCAA: 0.309
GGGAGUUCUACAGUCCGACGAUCCCUCUCAGAGCCUGAAACUUACCUCUUAGCUUUGGCUACAGGCAUGGCCUAGUACCUGAUGGAGCCUGUAUAGCUCAGCUAAUCAAAUGGAGGCUCAGGUCCAUCAGAAUUGGAAUUCUCGGGUGCCAA: 0.375
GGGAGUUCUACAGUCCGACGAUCCUGGAAGACGUACGCAUACUCCAUCGAUGUUGUAUUUGCAGUGGCUGAGGAAUUCUUGUACGCAGUUUUCUUUGGCUUUACGAAGCCGAUUAAAAGACCGUGUGAAAUGAUGGAAUUCUCGGGUGCCAA: 0.608
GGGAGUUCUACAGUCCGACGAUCGAGAAAGCUAUCAUGUUCCCGAAGUGCCUUGUUUUCUCUGAUAGAAAUAUAUUUAUAAGGACCUAUUCCAAUAGGCUCUUGGUGUUUCCCAUAUCAAGAUUUCUGCUAGCUGGAAUUCUCGGGUGCCAA: 0.447
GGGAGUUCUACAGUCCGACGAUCCUCACAGUCGGCCACUGGAUUUCCCUCACUGGCUCUCAGGAGUGUGACCAGAGUAGACUUGGGGCAUGGCCAUUGGGGUCAUAUGUUUAUUUUUCAUUGUGUUUUGUGACUGGAAUUCUCGGGUGCCAA: 0.652
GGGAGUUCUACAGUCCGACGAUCUGCCUGGAUUUUAUACAGUUAUUAAAGGAUGUCUCUUUUGCUUUAAACUGCAUGCUGCCAAGUGCCAUUUGGGGUCAGCAUCCUCGUUUCAACACAGUGUGCUCUCUAGUUGGAAUUCUCGGGUGCCAA: 1.66
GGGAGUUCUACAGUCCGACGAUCGGGGAGGUGCUGUUGGCGUGGAGGCUGCAGGAUGGAAGGGACACGUCCAGGUGACUGACUGGUUGCUCCUCCCCCUUGGCAUGUUUGCAGAUCCUCUCCUCAGUCCGUGAUGGAAUUCUCGGGUGCCAA: 0.94
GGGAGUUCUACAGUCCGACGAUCUUGGACAGCAUUCUGGUGUUCAGCAACCAAUAUGGAAUAUUUGUCAUUAAAUCCAUAUCAGUCUUUUCCAUGUCAUUCUUCUUUGCCACACAUUAAAUGUCACUCAGCUCUGGAAUUCUCGGGUGCCAA: 0.59
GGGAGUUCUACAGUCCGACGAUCCCUGUCCUGUGCUUGGAUAGUCAGUUGGUUAUUUGUGUAUGAAACAAUGUACAAAUCAAUGUUUUGAAAAUAAUGAUCUCAGACUUUCUAAGUUAAAUUUUAAACAAUUUUGGAAUUCUCGGGUGCCAA: 0.446

Excerpt of the above (study 5):
TCAGGTTGAACATGAACACTGTGCTAG: -0.244 z-score
TCATATCACTATTCTAGGACTGTGCTA: 1.62 z-score
TTAGATTACGGGACTGGATTAGTGCTA: -0.415 z-score
GACGATATCAGTCTCGGGACGTGCTAG: 1.05 z-score
CACGGTATCGGACTGGGGACGTGCTAG: 1.23 z-score
TTAGATTACAGTTTCGATTAGTGCTAG: 3.58 z-score
TTAGGTTGCGACACTGGGTTAGTGCTA: 0.357 z-score
TCATTTTCCTAATTGAAACTGTGCTAG: 6.19 z-score
TCACCTCTCTTTCCAACACTGTGCTAG: 1.35 z-score
TTGCCTTTTGCTTTACTGATGTGCTAG: 4.6 z-score
